# Measured values pooled from the literature.
# Parts stem from different laboratories: compare values within a part only.

# Set 1
# Cell line: HEK-293T/ACE2
# Tested at: concentration not given
# Time: 16 (unit not given)
# Reference: vehicle
SMILES,viability [%]
N[C@@H](Cc1cc(I)c(Oc2ccc(O)c(I)c2)c(I)c1)C(=O)O,98
CCCC1O[C@@H]2C[C@H]3[C@@H]4CCC5=CC(=O)C=C[C@]5(C)[C@H]4[C@@H](O)C[C@]3(C)[C@]2(C(=O)CO)O1 (stereo partly drawn),99.8
CCCCN(CCCC)CC(O)c1cc(Cl)cc2c1-c1ccc(Cl)cc1/C2=C/c1ccc(Cl)cc1 (stereo not drawn),101

# Set 2
# Target: Replicase polyprotein 1ab, main protease (rep, Severe acute respiratory syndrome coronavirus 2, UniProt P0DTD1)
# Observed: enzyme activity
# Action: inhibitor
# Tested at: 20 µM
# Setting: primary screen
SMILES,inhibition [%]
O=C(O)CCCCCCCCCCCCCCc1ccc(I)cc1,95
O=C(O)C(O)Cc1ccc(O)c(O)c1 (stereo not drawn),94.8
CCCCc1nc(C)c(CC(=S)N(C)C)c(=O)n1Cc1ccc(-c2ccccc2-c2nnn[nH]2)cc1,40

# Set 3
# Target: Replicase polyprotein 1ab, nsp13 helicase (rep, Severe acute respiratory syndrome coronavirus 2, UniProt P0DTD1)
# Action: inhibitor
# Tested at: 20 µM
SMILES,inhibition [%]
COc1cc(/C=C/c2ccc(O)cc2)cc(OC)c1,2.9
CN(C(=O)Cc1ccc(Cl)c(Cl)c1)[C@H](CN1CCCC1)c1ccccc1,-1.8
CC(=O)c1cnc2ccc(-c3cc(Cl)c(O)c(Cl)c3)nc2c1N[C@H]1CC[C@H](CN(C)C)CC1,15.2
COc1cc(OC)c(C(=O)CCCN2CCCC2)c(OC)c1,-3.49
OC[C@H]1O[C@@H](n2cnc3c(NC4CCCC4)nc(Cl)nc32)[C@H](O)[C@@H]1O,2.14
Cc1cccc(OCC(O)CNC(C)(C)C)c1C (stereo not drawn),4.99
Cc1cccc([C@H](C)c2c[nH]cn2)c1C,-5.16
CNC(=O)c1ccc(C)c(-n2c(C)cc(OCc3ccc(F)cc3F)c(Br)c2=O)c1,4.8
O=C(Nc1ccc(Cl)cc1)Nc1ccc(Cl)c(Cl)c1,2.11
COc1cc2nc(C3CC3)nc(N3CCN(c4ccccc4OC)CC3)c2cc1OC,0.45
C=C[C@@](C)(/C=C/c1ccc(O)cc1)CCC=C(C)C,2.7
O=C(O)CC/C=C\C[C@H]1CO[C@@H](c2ccccc2Cl)O[C@H]1c1ccccc1O,12.2
CC(C)Oc1ccc2c(=O)c3cc(C(=O)O)ccc3oc2c1,6.62
CCN(CC)CCc1nc(-c2ccccc2)no1,0
O=c1[nH]cnc2c([C@@H]3N[C@H](CO)[C@@H](O)[C@H]3O)c[nH]c12,7.28
Cc1c(N(C)C)c(=O)n(-c2ccccc2)n1C,0.44
Nc1c2c(nc3c1CCC3)CCCC2,2.36
Cn1cnc2c1c(=O)[nH]c(=O)n2C,-1.32
CC(C)C[C@H](CN)CC(=O)O,4.64
N#Cc1ccccc1OCC(O)CNCCNC(=O)Nc1ccccc1 (stereo not drawn),6.8

# Set 4
# Target: Histone acetyltransferase KAT6A, both winged helices, GST fusion (KAT6A, Homo sapiens, UniProt Q92794, residues 1-181)
# Technique: protein binding microarray
# Molecule type: double-stranded DNA, one strand shown
# Sample: in vitro
# Tested at: not given
# Setting: 8-mer, flanks averaged, mean of 2 arrays, mostly near background
# Reference: not given
# Reading: higher = stronger binding
# Construct (chain): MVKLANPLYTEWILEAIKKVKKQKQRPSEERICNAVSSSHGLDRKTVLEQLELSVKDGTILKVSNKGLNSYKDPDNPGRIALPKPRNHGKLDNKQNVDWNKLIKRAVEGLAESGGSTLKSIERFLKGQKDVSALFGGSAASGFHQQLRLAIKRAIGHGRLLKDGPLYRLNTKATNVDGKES
Oligonucleotide,E-score
CAAGTCCC,-0.0923
AGTGGGAC,-0.191
GTAACCTA,0.0373
GGATGTAC,-0.0241
CGAAGTTA,-0.171
GTAATAAC,0.037
CAGTCTTA,0.118
GGTCCGTA,0.244

# Set 5
# Target: RNA binding protein fox-1 homolog 2, RRM domain, GST-SBP tag (RBFOX2, Homo sapiens, UniProt O43251-10, residues 100-194)
# Technique: RNA Bind-n-Seq
# Molecule type: RNA
# Sample: in vitro
# Tested at: 365 nM
# Setting: natural RNA segment, single round, ends assumed
# Reference: no-protein control
# Reading: higher = stronger binding
# Target sequence (chain): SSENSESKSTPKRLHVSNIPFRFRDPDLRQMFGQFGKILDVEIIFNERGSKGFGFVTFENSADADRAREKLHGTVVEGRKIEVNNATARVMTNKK
Oligonucleotide,RBNS enrichment (R)
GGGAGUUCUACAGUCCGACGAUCGGAAGGCAGGCCUGAGCCAUUCACCACGGACAGGAAGAGCAGCUCUGGCUAUCACCACUGGCCUCUGGGGUCUUCAUAUCUUGCCAUCUCAUCCAGGGUUCCAUGAAAGUUGGAAUUCUCGGGUGCCAA,0.373
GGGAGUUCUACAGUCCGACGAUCUUCUAUUCUAACAAAGUAGUCUUGAGUUUCAUUUCUUAUGCCCCAUGGUAGUGGGAACCAGACCAAUCACAAUGUUUUAUUGAAACAUAUUCCAUCGUUACAGGAUAGCGUGGAAUUCUCGGGUGCCAA,0.32
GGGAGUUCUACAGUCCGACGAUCUGGAGUCUUUUUCAUGCUCUGGUCACCCAAGCUGCCUCAGAACCCAUUUGCUUCUCUCCUUCCUGGAAAGCUUCCCUUUAUGUUUUAUUUUGACCCCAGAUGUCCAGAUGUGGAAUUCUCGGGUGCCAA,1.01
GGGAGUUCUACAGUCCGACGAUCUGUAUUGCCAGACAGCUCUCUUUUGGUUCCCAUUCCAAAUGUGCUGCUGUCCUUCUUUGCAUUUCACAAUAUCAAAGAAACCACCACCCUUCUUCCUAACAGCAUUUUAUUGGAAUUCUCGGGUGCCAA,1.14
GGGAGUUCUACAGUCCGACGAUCUGUGAAUAUUUUCAACUAUGUAGGUAAAUUCUUAAUGUUCACAUAGUGAAAUAAAUUCUGAUUCUUCAAAUUAAAUUCUGUUCUCUUGUCAAGGGGGCAGGUGGGUGAAGUGGAAUUCUCGGGUGCCAA,0.461
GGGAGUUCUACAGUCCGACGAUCAUUUAUUUUUUUACUGAACCCAACUUGUAUCUCUAGGUUCAGCCCUUGGCCACUCUGGCCCUGAGCCUGGCUGAAUAGCAGGGCCCGUGUGUGUAGGCUCCCUUCUCACCUGGAAUUCUCGGGUGCCAA,0.719
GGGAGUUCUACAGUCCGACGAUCAGAGGAGGACGUGCAGCAUGGUGGGAAACGGGGACACCACCUCCCAGGACGACUGUGUCAGCAAAGAGCGCAGCUCCUCCAGGUGACCCAGCAAGGCUGUUGUCUGUAUGUGGAAUUCUCGGGUGCCAA,0.62
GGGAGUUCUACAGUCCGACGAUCAGGAGAUACUAGAGGCUCAGACAGCAGGCAUGUAUCCCCAUGGGGAAUAUGUGAGGACCUGGACCGCUGGCUGCCUCAGCUGUACCUGGUUUUAAAUGCAGCUUUCUGUAUGGAAUUCUCGGGUGCCAA,0.587
